Assay results gathered from unrelated publications.
Protocols differ between the studies behind these lines. Numbers after ± are the reported error.
HTR4: 5-hydroxytryptamine receptor 4 (HTR4, Homo sapiens, UniProt Q13639)
UniProt Q13639, sequence (whole entry, looked up): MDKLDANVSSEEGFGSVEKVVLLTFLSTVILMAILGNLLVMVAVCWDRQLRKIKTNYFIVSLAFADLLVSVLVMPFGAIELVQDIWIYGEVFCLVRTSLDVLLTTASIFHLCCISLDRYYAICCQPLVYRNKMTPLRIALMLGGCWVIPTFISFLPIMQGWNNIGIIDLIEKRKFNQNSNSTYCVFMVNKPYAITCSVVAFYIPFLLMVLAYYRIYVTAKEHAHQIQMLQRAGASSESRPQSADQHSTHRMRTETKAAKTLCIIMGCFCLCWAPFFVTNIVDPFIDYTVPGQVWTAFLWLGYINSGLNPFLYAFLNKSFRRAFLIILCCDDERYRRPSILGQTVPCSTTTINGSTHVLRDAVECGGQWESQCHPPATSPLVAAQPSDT
DRD5: D(1B) dopamine receptor (DRD5, Homo sapiens, UniProt P21918)
UniProt P21918, sequence (whole entry, looked up): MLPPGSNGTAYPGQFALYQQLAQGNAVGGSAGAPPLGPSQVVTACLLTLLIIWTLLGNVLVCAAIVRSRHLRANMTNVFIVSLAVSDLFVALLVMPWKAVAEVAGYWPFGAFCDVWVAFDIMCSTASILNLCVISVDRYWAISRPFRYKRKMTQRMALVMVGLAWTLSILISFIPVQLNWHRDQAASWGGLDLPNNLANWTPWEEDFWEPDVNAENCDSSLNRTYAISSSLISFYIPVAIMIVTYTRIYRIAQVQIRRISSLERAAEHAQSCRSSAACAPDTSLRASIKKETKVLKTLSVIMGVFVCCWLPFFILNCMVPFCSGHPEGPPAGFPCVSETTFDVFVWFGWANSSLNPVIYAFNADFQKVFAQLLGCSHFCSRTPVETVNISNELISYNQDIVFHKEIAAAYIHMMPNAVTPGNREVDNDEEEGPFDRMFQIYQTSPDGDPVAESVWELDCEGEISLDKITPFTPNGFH
UniProt Q7RTT9, sequence (whole entry, looked up): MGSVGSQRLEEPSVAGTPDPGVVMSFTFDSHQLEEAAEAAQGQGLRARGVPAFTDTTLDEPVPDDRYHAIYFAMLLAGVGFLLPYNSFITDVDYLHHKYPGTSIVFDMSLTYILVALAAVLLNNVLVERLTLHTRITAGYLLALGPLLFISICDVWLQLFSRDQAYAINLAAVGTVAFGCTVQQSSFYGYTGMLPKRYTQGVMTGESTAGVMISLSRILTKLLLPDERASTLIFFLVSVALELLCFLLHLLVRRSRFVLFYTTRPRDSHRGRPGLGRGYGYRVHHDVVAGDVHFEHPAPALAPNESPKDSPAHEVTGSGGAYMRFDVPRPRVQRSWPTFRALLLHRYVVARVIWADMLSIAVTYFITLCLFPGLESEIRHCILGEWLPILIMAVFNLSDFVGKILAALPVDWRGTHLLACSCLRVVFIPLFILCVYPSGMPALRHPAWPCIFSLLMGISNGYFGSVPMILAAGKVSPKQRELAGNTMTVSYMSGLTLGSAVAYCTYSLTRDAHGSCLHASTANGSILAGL
UniProt Q96L34, sequence (whole entry, looked up): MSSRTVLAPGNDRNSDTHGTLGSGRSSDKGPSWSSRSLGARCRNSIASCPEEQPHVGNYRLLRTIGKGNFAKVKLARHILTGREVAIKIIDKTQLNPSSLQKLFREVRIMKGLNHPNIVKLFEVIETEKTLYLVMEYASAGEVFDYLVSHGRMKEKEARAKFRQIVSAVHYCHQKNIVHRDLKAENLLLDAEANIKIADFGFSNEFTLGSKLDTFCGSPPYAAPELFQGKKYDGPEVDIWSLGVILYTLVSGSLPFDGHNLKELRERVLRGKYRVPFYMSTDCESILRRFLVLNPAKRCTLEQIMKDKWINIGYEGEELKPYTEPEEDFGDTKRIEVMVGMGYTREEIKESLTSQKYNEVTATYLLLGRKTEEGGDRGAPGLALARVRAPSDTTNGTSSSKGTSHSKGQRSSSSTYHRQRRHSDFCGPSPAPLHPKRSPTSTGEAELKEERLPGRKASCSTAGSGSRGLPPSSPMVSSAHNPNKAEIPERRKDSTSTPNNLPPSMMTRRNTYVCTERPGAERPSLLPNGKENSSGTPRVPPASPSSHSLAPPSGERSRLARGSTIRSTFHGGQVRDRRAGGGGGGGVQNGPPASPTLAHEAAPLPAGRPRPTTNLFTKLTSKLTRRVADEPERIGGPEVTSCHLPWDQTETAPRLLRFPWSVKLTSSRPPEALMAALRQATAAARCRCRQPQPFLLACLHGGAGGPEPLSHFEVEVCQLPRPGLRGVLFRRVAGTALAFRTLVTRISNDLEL
UniProt Q9H3N8, sequence (whole entry, looked up): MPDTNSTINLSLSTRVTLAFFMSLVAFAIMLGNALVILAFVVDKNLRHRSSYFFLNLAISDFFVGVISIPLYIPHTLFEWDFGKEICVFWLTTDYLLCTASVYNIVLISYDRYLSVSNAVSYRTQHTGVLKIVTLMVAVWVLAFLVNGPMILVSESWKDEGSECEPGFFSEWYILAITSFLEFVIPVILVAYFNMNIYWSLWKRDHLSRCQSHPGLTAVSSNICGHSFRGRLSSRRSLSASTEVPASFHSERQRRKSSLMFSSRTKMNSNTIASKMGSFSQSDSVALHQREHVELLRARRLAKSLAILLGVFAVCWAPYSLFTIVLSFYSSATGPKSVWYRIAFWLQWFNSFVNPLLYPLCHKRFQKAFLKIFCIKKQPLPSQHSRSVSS
UniProt O14920, sequence (whole entry, looked up): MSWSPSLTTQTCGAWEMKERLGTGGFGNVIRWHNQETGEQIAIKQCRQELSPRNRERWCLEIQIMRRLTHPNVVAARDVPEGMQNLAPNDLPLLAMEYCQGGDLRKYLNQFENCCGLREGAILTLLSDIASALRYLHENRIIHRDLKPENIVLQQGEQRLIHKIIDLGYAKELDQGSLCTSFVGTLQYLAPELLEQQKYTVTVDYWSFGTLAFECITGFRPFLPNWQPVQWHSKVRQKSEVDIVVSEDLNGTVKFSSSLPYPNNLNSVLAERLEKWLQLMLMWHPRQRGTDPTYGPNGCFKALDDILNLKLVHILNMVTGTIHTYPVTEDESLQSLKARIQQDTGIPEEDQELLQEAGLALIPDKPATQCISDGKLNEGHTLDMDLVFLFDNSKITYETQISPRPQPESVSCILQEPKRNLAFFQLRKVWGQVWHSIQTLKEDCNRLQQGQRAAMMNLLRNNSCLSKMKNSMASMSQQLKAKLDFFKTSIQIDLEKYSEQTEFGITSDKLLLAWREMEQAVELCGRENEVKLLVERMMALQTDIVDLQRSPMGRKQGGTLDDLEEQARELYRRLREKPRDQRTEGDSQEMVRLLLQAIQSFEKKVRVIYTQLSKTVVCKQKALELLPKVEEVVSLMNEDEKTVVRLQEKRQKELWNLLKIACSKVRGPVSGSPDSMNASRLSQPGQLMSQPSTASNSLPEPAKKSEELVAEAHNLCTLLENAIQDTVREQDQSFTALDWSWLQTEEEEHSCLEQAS
UniProt P21452, sequence (whole entry, looked up): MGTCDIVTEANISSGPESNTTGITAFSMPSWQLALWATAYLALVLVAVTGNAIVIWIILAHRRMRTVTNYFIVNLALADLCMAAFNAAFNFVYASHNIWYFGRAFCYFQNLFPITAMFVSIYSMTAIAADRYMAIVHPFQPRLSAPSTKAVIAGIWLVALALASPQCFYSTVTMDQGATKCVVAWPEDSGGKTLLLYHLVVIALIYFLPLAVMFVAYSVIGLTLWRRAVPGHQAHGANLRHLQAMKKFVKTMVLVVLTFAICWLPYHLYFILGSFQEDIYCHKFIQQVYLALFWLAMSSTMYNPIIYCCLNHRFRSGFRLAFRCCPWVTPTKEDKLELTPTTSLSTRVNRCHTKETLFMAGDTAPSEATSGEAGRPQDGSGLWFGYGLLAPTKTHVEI

O=C(CN1CCO[C@@H](COc2cccnc2)C1)N1CCc2ccccc21  inhibition (HTR4; radioligand binding; concentration not given): 3.6%
O=C(Nc1cccc2c(=O)cc(-c3nnn[nH]3)oc12)c1ccc(OCCCCc2ccccc2)cc1  inhibition (Volume-regulated anion channel subunit LRRC8C, part LRRC8A IL1 chimera (LRRC8C, Homo sapiens, UniProt Q8TDW0, E6A); ion current, inhibitor, whole-cell patch clamp; HCT116 LRRC8 knockout, transfected; 10 µM, at +100 mV): 80.5%
COc1c(O)c(C)cc2c1C(=O)c1c(cc(O)c(O)c1O)C2=O  cell viability (HepaRG co-cultured with HK-2; MTT; 133.33 µM, 48 h; reference: untreated control): 63.2 ± 6.5%
Cc1cc2c(cc1N1C(=O)c3cccc4c(CCCO)ccc(c34)C1=O)n(C)c(=O)n2C (racemic)  inhibition (Bromodomain testis-specific protein, BD1 (BRDT, Homo sapiens, UniProt Q58F21); binding, BROMOscan binding; 1000 nM): 91%
Cc1cc(-c2ccnc3[nH]cc(F)c23)cc(F)c1[C@@]1(O)[C@H](C)CN(C2CCS(=O)(=O)CC2)C[C@@H]1C  inhibition (AKT1 and AKT3; ATP probe binding, KiNativ, refers to: Lys2 site; HEK293T cell lysate; 1 µM): 1.7%
Cc1onc(-c2ccccc2)c1-c1ccc(S(N)(=O)=O)cc1  confluence (COS-7; 50 µM, 24 h, 0.1% DMSO, unit not given; reference: vehicle control): 0.93 ± 0.01
Cc1ccnc(C)c1OC[C@H]1CN(CCN2CCc3ccccc32)CCO1  inhibition (DRD5; radioligand binding; concentration not given, with: [3H]SCH23390): 27.1%
CC(=O)c1c(C)cc2cc(O)cc(O[C@@H]3O[C@H](CO)[C@@H](O)[C@H](O)[C@H]3O)c2c1O  cell viability (HepaRG co-cultured with HK-2; MTT; 133.33 µM, 24 h; reference: untreated control): 85.5 ± 12.7%
CCCCCCCC(=O)c1c(O)cc(O)cc1CC(=O)OCC  metabolic activity (COS-7; WST-8; 10 µM, 24 h, 0.1% DMSO, unit not given; reference: vehicle control): 1.13 ± 0.03
CC[C@@H]1[C@H](F)C(=O)N[C@@H]1COc1nccc2cc(C(N)=O)c(OC)cc12  inhibition (MAP/microtubule affinity-regulating kinase 4 (MARK4, Homo sapiens, UniProt Q96L34); ATP-site probe binding, ActivX profiling; THP-1 cell lysate; 0.01 mM, Lys2 site): 9.6%
C[C@@H]1CCO[C@H]2Cn3cc(C(=O)NCc4ccc(F)cc4F)c(=O)c(O)c3C(=O)N12  inhibition (Equilibrative nucleoside transporter 4 (SLC29A4, Homo sapiens, UniProt Q7RTT9); transport, inhibitor; MDCK-II PMAT-transfected; 10 µM, with: MPP+ 10 µM): -4.75%
CN(C(=O)n1cnc(-c2ccc[n+]([O-])c2)c1)C1CCCCC1  inhibition (Substance-K receptor (TACR2, Homo sapiens, UniProt P21452); 10 µM): 8.01%
O=C(NO)c1ccc(CN2CCCCc3ccccc32)c(F)c1  inhibition (Histamine H4 receptor (HRH4, Homo sapiens, UniProt Q9H3N8); radioligand binding, radioligand displacement; 10 µM, mean of replicates): -1.57%
O=C(CN1CCO[C@H](COc2cccc(Cl)c2)C1)N1CCc2ccccc21  inhibition (HTR4; radioligand binding; concentration not given): 15%
Cc1cc(-c2ccnc3[nH]cc(F)c23)cc(F)c1[C@@]1(O)[C@H](C)CN(C(=O)CN)C[C@@H]1C  inhibition (AKT1 and AKT3; ATP probe binding, KiNativ, refers to: Lys2 site; HEK293T cell lysate; 10 µM): 18%
COc1ccc2c(c1)CN(CCCN1CCN(c3ccccc3OC)CC1)C2=O  inhibition (DRD5; radioligand binding; concentration not given, with: [3H]SCH23390): 32.5%
Cn1cc(-c2cnc3ccc(NC(=O)Nc4ccc(F)c(Br)c4)cc3n2)cn1  inhibition (Inhibitor of nuclear factor kappa-B kinase subunit beta (IKBKB, Homo sapiens, UniProt O14920); kinase binding, KiNativ profiling, refers to: Lys1 peptide; PANC-1 lysate; 5 µM): 1.9%

Excerpt of the above:
C[C@@H]1CCO[C@H]2Cn3cc(C(=O)NCc4ccc(F)cc4F)c(=O)c(O)c3C(=O)N12  inhibition (Equilibrative nucleoside transporter 4 (SLC29A4, Homo sapiens, UniProt Q7RTT9); transport, inhibitor; MDCK-II PMAT-transfected; 10 µM, with: MPP+ 10 µM): -4.75%
